Measured values collected from several papers.
Cell line: K562

For `C/C1=C\[C@H](C)C[C@H](C)OC(=O)C[C@H](c2ccc(O)cc2)NC(=O)[C@@H](Cc2ccc(O)cc2)N(C)C(=O)[C@H](C)NC(=O)[C@@H](C)C1`, the GI50 was > 50 µg/mL (cell growth or viability).
With `C=C(NC(=O)c1csc(-c2cccnc2)n1)C(=O)NC(=C)C(=O)OC` the EC50 was 2.9 µM (cell growth or viability).
`O=C(Nc1nnc2c1c(-c1ccc(Cl)cc1)nc1sc(=Cc3ccco3)c(=O)n12)c1ccccc1` (mixture of isomers) has a cell growth of 26.5% (SRB; 10 µM, NCI60 single-dose screen; reference: untreated).
With `CC(C)c1ccc(N(C)c2ccc3c(c2)OCC[C@H]3CNc2cnccc2C(=O)O)cc1` the IC50 was 0.00456 µM (cell growth or viability, ATP luminescence; 7 days).
`NC(=O)c1ccc(-c2ccccc2Cl)c2c3c([nH]c12)CC[C@@H](N)C3` has an IC50 of 0.0139 µM (cell growth or viability).
With `CC(C)=CC1OC(C)(C)C2C=C3C(=O)C(Cl)=CC(O)C3C3C(O)C4OC4C(=O)C132` (stereo not shown) the IC50 was 3.95 µM (cell growth or viability, MTS).
The GI50 of `C/C1=C\CC[C@H](C)OC(=O)C[C@H](c2ccc(O)cc2)NC(=O)[C@@H](Cc2ccc(O)cc2)N(C)C(=O)[C@H](C)NC(=O)[C@@H](C)C1` is reported as > 50 µg/mL (cell growth or viability).
`CN1CCC(N[C@H]2CCc3[nH]c4c(C(N)=O)ccc(-c5ccccc5Cl)c4c3C2)CC1` gave an IC50 of 0.735 µM (cell growth or viability).
For `Cc1[nH][n+]([Pt-2]([Cl])([n+]2[nH]c(C)c(CSCc3ccccc3)c2C)[n+]2[nH]c(C)c(CSCc3ccccc3)c2C)c(C)c1CSCc1ccccc1.[Cl-]`, the selectivity index was 1.6 (cytotoxicity; reference: IC50 HEK293 over IC50 K562).
`N#Cc1c(N)nc2c(c1-c1cccs1)Cc1cc(O)ccc1-2` has an IC50 of > 100 µM (cell viability, CellTiter-Glo; no inhibition at 100 µM).
For `CCN(C(=O)c1cc(F)ccc1Oc1nncnc1N1CCC2(C1)CN([C@H](CCCN(C)CCOC)C(C)C)C2)C(C)C`, the GI50 was > 10 µM (cell growth or viability; 72 h).
For `N#Cc1c(N)nc2c(c1-c1ccc(CO)o1)Cc1cccc(O)c1-2`, the IC50 was > 100 µM (cell viability, CellTiter-Glo; no inhibition at 100 µM).
`Cc1[nH][n+]([Pd-2]([Cl])([Cl])[n+]2[nH]c(C)c(CSCc3ccccc3)c2C)c(C)c1CSCc1ccccc1` gave a selectivity index of 1.8 (cytotoxicity; reference: IC50 HEK293 over IC50 K562).
With `COc1cc(/C=C/C(=O)/C=C(O)/C=C/c2ccc(OCC(=O)N3CCOCCOCCOCC3)c(OC)c2)ccc1OCC(=O)N1CCOCCOCCOCC1` the inhibition was 78% (cell growth or viability, SRB; 25 µM).
`COc1ccccc1-c1c[nH]c2ncc(-c3cncc(C(=O)N(C)C)c3)cc12` gave a GI50 of 0.11 µM (cell growth or viability, MTT; 72 h).
The growth percent of `CN(C)CCN1CCN(c2ccc3nc(-c4ccc5nc(-c6ccc(C(F)(F)F)cc6)[nH]c5c4)[nH]c3c2)CC1` is reported as 11.6% (SRB; 10 µM, 48 h).
The GI50 of `C=CS(=O)(=O)Oc1ccc(OC)c(-c2c[nH]c3ncc(-c4cncc(C(=O)N(C)C)c4)cc23)c1` is reported as 0.532 µM (cell growth or viability, MTT; 72 h).
The IC50 of `CCCON(Cc1ccc(C(=O)NO)cc1)C(=O)Nc1cc(C)cc(C)c1` is reported as 1.62 µM (cell growth or viability, ATP luminescence; 72 h).
`Cn1ncc(-c2ccc3c(=O)[nH]nc(CN)c3c2)c1-c1c(F)c(Cl)cc(OC2CC2)c1C#N` gave an IC50 of 4.38 µM (cell viability, inhibitor, CellTiter-Glo; 120 h, baseline-subtracted).
With `N#Cc1c(N)nc2c(c1-c1ccc(F)cc1)Cc1cc(O)ccc1-2` the IC50 was > 100 µM (cell viability, CellTiter-Glo; no inhibition at 100 µM).
For `COc1ccc(O)cc1-c1c[nH]c2ncc(-c3cncc(C(=O)N(C)C)c3)cc12`, “CRKL and STAT5 phosphorylation” read “inhibited” (inhibitor, Western blot; concentration not given, 6 h, hypoxia).
`Cc1ccc([N+](=O)[O-])cc1S(=O)(=O)N(C)/N=C/c1cnc2ccc(Br)cn12` has an IC50 of 0.416 µM (cell growth or viability).
